Measurements from different studies.
Lines come from different studies, so protocols differ.

Under “median duration of response”, `C=CC(=O)Nc1cc(Nc2ncc(C(=O)OC(C)C)c(-c3cn(C)c4ccccc34)n2)c(OC)cc1N(C)CCN(C)C` is recorded as 17.5 months (BICR; EGFR-mutant NSCLC patients; dose not given).
Under “median duration of response”, `CCN1CCN(Cc2ccc(Nc3ncc(F)c(-c4cc(F)c5nc6n(c5c4)[C@H](C)CCC6)n3)nc2)CC1` is recorded as 3.7 months (Phase Ia, RECIST v1.1; patients with advanced solid tumours; dose not given, monotherapy, all doses).
With `N#CC[C@H](C1CCCC1)n1cc(-c2ncnc3[nH]ccc23)cn1` the median inhibition was 59.2% (phosphoflow cytometry, item: pS6; patients, patient plasma; dose not given, C1D15 steady-state trough).
`CN(C)C(=O)c1cc2cnc(Nc3ccc(N4CCNCC4)cn3)nc2n1C1CCCC1` has a median PFS2 of 33.5 months (HR+/HER2− advanced breast cancer patients; dose not given, region North America).
Under “median clinical benefit duration”, `Nc1nc2cc(-c3ccc4ncc(C(=O)N5CCOCC5)n4c3)ccc2o1` is recorded as 4.8 months (RECIST v1.1; advanced solid tumour patients; dose not given, once-daily dosing).
For `COc1ncnn2ccc(-c3cnc4nc(C)n(Cc5nnc([C@@H](C)F)o5)c4c3)c12`, “median overall survival” read 10.4 months (Homo sapiens, relapsed or refractory AML or MDS; dose not given, all patients).
`Cc1cc(Nc2ncc(Cl)c(Nc3ccccc3S(=O)(=O)C(C)C)n2)c(OC(C)C)cc1C1CCNCC1` — result for “median progression-free survival”: 5.6 months (patients with advanced solid tumours; dose not given, together with: gemcitabine and cisplatin).
`CN[C@@H](C)C(=O)N[C@H]1CN(S(=O)(=O)c2cccc(S(=O)(=O)N3CC[C@H]4CC[C@@H](C(=O)NC(c5ccccc5)c5ccccc5)N4C(=O)[C@@H](NC(=O)[C@H](C)NC)C3)c2)CC[C@H]2CC[C@@H](C(=O)NC(c3ccccc3)c3ccccc3)N2C1=O`: “median overall survival” 6.44 months (RECIST 1.1; advanced pancreatic cancer patients; dose not given, efficacy-evaluable, together with: AG).
For `COCCOc1cnc2ccn([C@H](C)c3nnc4c(F)cc(-c5cnn(C)c5)cn34)c(=O)c2c1`, “median duration of partial response” read 91 days (MET-amplified advanced solid tumour patients; dose not given).
`Cc1cccc(-c2[nH]c(CNc3ccccc3F)nc2-c2ccc3ncnn3c2)n1` — result for “median time to best response”: 2 months (relapsed refractory multiple myeloma patients; oral, dose not given, together with: pomalidomide).
Under “median blast change”, `CC(C)n1c(C2CCNCC2)nc2c([N+](=O)[O-])c(Br)c(Br)cc21` is recorded as -13% (patients with AML, bone marrow; all dose levels; relative to: baseline).

For quick reference, copied from above:
`Cc1cccc(-c2[nH]c(CNc3ccccc3F)nc2-c2ccc3ncnn3c2)n1` — result for “median time to best response”: 2 months (relapsed refractory multiple myeloma patients; oral, dose not given, together with: pomalidomide).
